Published values pooled from the literature.
Every numbered part comes from another study and shows a few of its results, in no order.

Series 1
Target: RNA binding protein fox-1 homolog 2, RRM domain, GST-SBP tag (RBFOX2, Homo sapiens, UniProt O43251-10, residues 100-194)
Technique: RNA Bind-n-Seq
Molecule type: RNA
Matrix: in vitro
Concentration: 365 nM
Notes: natural RNA segment, single round, ends assumed
Relative to: no-protein control
Direction: higher = stronger binding
Shared flanks, not repeated: GGGAGUUCUACAGUCCGACGAUC … UGGAAUUCUCGGGUGCCAA
Residues (chain): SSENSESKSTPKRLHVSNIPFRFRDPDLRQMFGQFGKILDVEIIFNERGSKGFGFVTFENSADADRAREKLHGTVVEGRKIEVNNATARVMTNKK
Oligonucleotide | RBNS enrichment (R)
CGGUUUUCCAUAGGCAUUAAAGUGCUGAAUGCUCAGUCUGAUCAACAAGUGGGCACCUGCACUACCACUUUUUAGAGGAAAUUCACUCCCUCGUAAGCAUUGGAAGGUCA | 0.343
UUUUGUAAUCAUUCUCUAAUCCCACUCUGAGUGUCCCGUGACCCUGCAUAAUAAAGCAAUCACUUUCGUUUGCUGGUGCUUAUUCUGAAUAAAAGUCUUGAUUGCAUGAG | 2.92
UCGGAAACUAUUUUUAUGUAAUUAAUGUAUGCUUUCUUGUUUAUAAAUGCCUGAUUUAAAAAGAAAAGAGCUUGGCAUAUUUAUCUAUUUCGCUGUGUACCUGUUAGUCC | 15.1
GCCCUGGGCCUGGCGGCACAGCAGCACUUGCGUUCUCGGGGCUGUCGAUUUCCUGCCACCUGGGCAGAUAACCUGGAGAUUUUCACCUUUUCUUUUCAGCUUGAUUGCAU | 3.11
CCAGUCAGAAAAGCAAACUAACAGAAACAUGAAUUAGAAUUUCAAGCUCAUCUGAGUUUGACCAACAUGUUAGGCACUUACAAGAGCUGAAAUUUUUUUUUUAAUCACAG | 0.427
CAUAUUUAAGAUUUGAGAUACCAAAAGAAUGUCCCUCAAGGGACAUUGCCAUUUAUUCUAGAAUUAAUCAUGCAUUUGAGGUAAUACAAAAUAUAGUUUUAUCAUGUUAG | 0.298
ACUCUUGGACUCAUAGGGCAGAAUGAAGGGCUGUAAAGAUGAGGGGGUAUUUCUUCUACCCUAUCUUCUUUCAUUGUCAUUCCAAGGGCAGUAGGCCAAGAAAUUAUCUU | 0.33
UAUCCACACUCACAUUUCAGAGUCCUGACUCUCAAGGAACCACUGGUUUUUGGGAUAGAACUUGGGCCAGGGCUAGGAACACAGGCUCCACGGUGACAUGUCAUUUGAUU | 0.322
AGCCUGUGGGCAGCAUGCCCAGAUUCCCAGACCUUAAGACACUGUGAGAGUUGUCUCUGUUGGUCCACUGUGUUUAGUUGCAAGGAUUUUUCCAUGUGUGGUGGUGUUUU | 4.12
CAGCCCCUGCACAAAGCCCUUCCAUGUCGCCUCUGCAUUCAGGAUCAAACCCCGACCACCUGCCCAACCUGCUCUCCUCUUGCCACUGCCUCUUCCUCCCUCAUUCCACC | 0.959
GCGUGAGUCCGCGGCUGGCCCUUGGAGGUGACCAUCCAGGCAGGCCUGGCUCAGACUGGAAGGGCUGGGGACCGAGGGCUCCCCUGCCUCUGUUCUCCUUUCUGACCCAC | 0.395
UUGAGGCCCAGACUCAGCCUGCCCACUGGUGCCGGAGACGGAGUGGAGUGGGCCUGGAUCCGAGGGAUGCUACCUCUCCCUUUCCCACUUGAGGACCCUGGGGAGAGAUG | 0.921

Series 2
Target: Ras GTPase-activating protein-binding protein 1, full length (G3BP1, Homo sapiens, UniProt Q13283)
Sequence of UniProt Q13283 (whole entry, looked up): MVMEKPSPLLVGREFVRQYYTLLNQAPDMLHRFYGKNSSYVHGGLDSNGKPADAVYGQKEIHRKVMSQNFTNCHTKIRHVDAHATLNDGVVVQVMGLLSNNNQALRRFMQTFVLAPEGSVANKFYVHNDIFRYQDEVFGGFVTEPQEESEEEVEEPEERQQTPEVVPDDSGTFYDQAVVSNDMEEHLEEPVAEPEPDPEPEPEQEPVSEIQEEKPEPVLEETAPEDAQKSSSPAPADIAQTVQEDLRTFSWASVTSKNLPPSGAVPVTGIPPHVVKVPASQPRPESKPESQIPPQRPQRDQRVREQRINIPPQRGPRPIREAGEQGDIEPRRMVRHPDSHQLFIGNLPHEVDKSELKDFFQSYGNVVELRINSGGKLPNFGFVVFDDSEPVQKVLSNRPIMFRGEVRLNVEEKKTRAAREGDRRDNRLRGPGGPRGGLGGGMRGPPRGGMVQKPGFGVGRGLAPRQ
Technique: RNA Bind-n-Seq
Molecule type: RNA
Matrix: in vitro
Concentration: 200 nM
Notes: whole 134-nt RNA, ends assumed
Together with: 150 mM LiCl
Relative to: input library
Direction: higher = stronger binding
Library: 7-deaza-guanosine replaces G
Shared flanks, not repeated: GGGAGUUCUACAGUCCGACGAUC … UGGAAUUCUCGGGUGUCAAGG
Oligonucleotide | log2 enrichment
AGUCCUGUGCUACACAUCGUAUGUACCGAAUCGGUUUUUGGGUUUUUGGUUUUUGGGAAAGUAUUAUGUUACGCCGUUCGGAUCUGCACU | -0.994
UCAAGUCCUGUGCUACACAUCGUAUGUACCGAAUCGGAAAGGUUUUUUUGGAGGAAAGUAUUAUGUUACGCCGUUCGGAUCUGCACUUCC | -0.117
UUCCCUCUGUUUUAUUUUUCCCCCGUGUGUCCCUACUAUGGUCAGAAAGCCUGUUGUGUCCACCAUCUCCAAAGGAGGUUACCUGCAGGG | 0.634
GGGGGUGACCGCCGGAGCGCGGCGUGAGCCCUCCCCCUUGGGAUCCCGCAGCUGACCAGUCGCGCUGACGGACAGACAGACAGACACCGC | -0.572
UUCAUGAGGACCUCCGCCUGCUCUUGGAGACCCACCUGCCGUCCAAAAAGAAGAAAGUACUCUUGGGAGUUGGGGAUCCCAAGAUUGGUG | -0.214
CAAGUCCUGUGCUACACAUCGUAUGUACCGAAUCGGUUUGGAAAAAAAGGUUUGGAAAGUAUUAUGUUACGCCGUUCGGAUCUGCACUUC | -2.55
AGUCCUGUGCUACACAUCGUAUGUACCGAAUCGGUUUUUGGUUUUUGGAAAAAAAGGAAAGUAUUAUGUUACGCCGUUCGGAUCUGCACU | -2.02
CAAGUCCUGUGCUACACAUCGUAUGUACCGAAUCGGGUGGGUUUGGGUUUUUGGGAAAGUAUUAUGUUACGCCGUUCGGAUCUGCACUUC | 0.00361
CUCAAGUCCUGUGCUACACAUCGUAUGUACCGAAUCGGGGCGGGGCGGGCGGGAAAGUAUUAUGUUACGCCGUUCGGAUCUGCACUUCCA | -0.134
GGAGUGCCGUGAGCAGGCCGCGGGAACGUCGCCGUCACCUUGUCUCGGGGCCUCGGCGCUGCUUCCCGCCAAAACACGUUUACCGCGCGC | -1.36
UUUGAAGAUCAGCUUCAGCAAUGGUUGUCUGAAGACUCAGGAGCAUUUACGGAUUUAACUUCCCUUCCCCUCUAUCUUCCUCAGACUCUA | 0.583

Series 3
Target: RING finger protein unkempt homolog, zinc fingers 1-6, GST-SBP tag (UNK, Homo sapiens, UniProt Q9C0B0, residues 30-357)
Sequence of UniProt Q9C0B0 (30-357, looked up): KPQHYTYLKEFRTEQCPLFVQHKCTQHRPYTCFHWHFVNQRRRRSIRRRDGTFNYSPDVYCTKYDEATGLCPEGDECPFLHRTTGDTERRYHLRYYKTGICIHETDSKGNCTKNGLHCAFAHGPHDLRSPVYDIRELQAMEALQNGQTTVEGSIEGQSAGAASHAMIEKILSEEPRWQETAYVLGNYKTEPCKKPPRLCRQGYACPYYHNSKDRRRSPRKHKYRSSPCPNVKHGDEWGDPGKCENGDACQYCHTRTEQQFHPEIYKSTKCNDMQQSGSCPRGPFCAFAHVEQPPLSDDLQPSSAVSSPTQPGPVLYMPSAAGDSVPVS
Technique: RNA Bind-n-Seq
Molecule type: RNA
Matrix: in vitro
Concentration: not given
Notes: RNA with constant flanks, human-mouse chimeric sites, ends assumed
Relative to: input RNA pool
Direction: higher = stronger binding
Shared flanks, not repeated: GGGAGUUCUACAGUCCGACGAUC … CAACAGAGGAUUGAGCAUCA
Oligonucleotide | bound/input enrichment [ratio]
AGCACAACCCCAGCAAAGCUCAGGAACCCUUGUACAAGUGAACAAAACUGCACCAGCCCAUUUAGCUACAAAAAUGUGCUCAGUCUUACUGACAGAGGAGAGUUUUUCAAUGAACUUGUU | 1.83
GUAUACGGUUAUCGAGGAAAGGACUGUAGAGCGAAUGUAUACCUGCUUCCGACCGGGGAGAUAGUUUAUUUCAUUGCCUCAGUGGUAGUCCUGUUUAAUUAUGAGGAGAGGACUCAGCGA | 1.46
GCAGGAUCUUCUAAAUACCAGUGGGACAUUAUGAAAUCCCUUGGGCUCUCUGAUGACGAGAUAGUAAAGUUUUCUGAAGCAGAGCACUGGCUUGAUUAUUUCCCACCACUGGCCGUUCAG | 0.201
GGGGAGAAACCUUAUGAGUGUGUGCAGUGUGGGAAAUCGUAUAGUCAGAGCUCAAACCUCUUCAGACAUCAGAGACGACACAAUGCAGAAAAACUUUUGAAUGUUGUGAAGGUUUAAGAA | 0.613
AACGUGGAACUAAGUUCCUUGGCCCGGCUUCCCAGCUUAAAUAAACUCCGGAAGUUGGAACUUAGUGACAAUAUAAUUUCUGGAGGCUUGGAAGUCCUGGCAGAGAAAUGUCCAAAUCUU | 0.164
CUGUGCGACUAUUCUCCCUGGAGUGGCUGGAGUUCCCGCCGGAGCGCGGCCAGACUAAUUUUAGAAAAUGCCAAGUAGGAAGUUUGUUGAGGGUGAAGUGGUCAGAGGCCGAUGGCCUGG | 5.25
AUAGAUGAAAUUGAUGUGGACCAGGAAGGAAUUGCUGAAAUGAUCCUGGAUGAAAAUGCUAUAGCUCAAGUUCCACGCCCUGGCACAUCUUUGAAGCUCCCUGGCACUAACCAAACAGGA | 0.301
GUGACUGGUGUUAAGAUUUCCCCUCAGCAAAGAAGUGCAGUAGUCACCAUAAUUCCAUCUGUGGUGAAUGCCAAUCAGAUUGUGGAGCUGGUCCCAGAACUCAGUUUAGACAUGGGAACU | 0.42
AAAGAACCUCUCUCUGAAGAAGAGGAAGAAGACAAUGAUGAUGUUGAACCCAUUUCUGAAUUUCGAUUUGUGCCUAGUGAUAAGUCAGCAUUGGAGGCGAUGUUCACAGCAAUGUGUGAG | 0.374
GGCUGCUGGUGACUGUCCUGGAGUGGCUGGAGUUCCCCCGGAACCUGGGCCAGACUAAUUUUAGAAAAUGCCAAGUAGGAAGUUUGUUGAGGGUGAAGUGGUCAGAGGCCGAUGGCCUGG | 4.27
CGGAGCCCUCCUCUCCCACAGGCCCAAGAUAUAACCCACCAGUGCCUUUUGUCUUCCUGUCAGCUCUGUCAAUCACGGCCCUGCCUUCACGCCCACACCAAGUGCCCCCACCCCUAAGGG | 0.477

Series 4
Target: Histone acetyltransferase KAT6A, winged helix 2, GST fusion (KAT6A, Homo sapiens, UniProt Q92794, residues 85-181)
Technique: protein binding microarray
Molecule type: double-stranded DNA, one strand shown
Matrix: in vitro
Concentration: not given
Notes: 8-mer, flanks averaged, mean of 2 arrays, mostly near background
Relative to: not given
Direction: higher = stronger binding
Target sequence (chain): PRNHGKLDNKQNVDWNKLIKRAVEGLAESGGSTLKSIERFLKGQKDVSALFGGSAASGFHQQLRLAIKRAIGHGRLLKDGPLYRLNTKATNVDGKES
Oligonucleotide | E-score
CTGATAAG | 0.0499
AACGCCCT | 0.0519
AATGCAAT | -0.198
CGATCACG | 0.104
GAACCGCC | 0.0418
ACATAAGC | -0.16
CGGAAACC | 0.0196
CTTCACTC | -0.0268
CAGCGACC | 0.147
AGTTCCGG | 0.023
ACCTGGTG | -1e-05
CTGAGCTC | 0.102
AGCTGTCA | -0.155
GTAATTTA | -0.00752
TGCCCCAA | 0.0128
CGTGCGAG | 0.177
ATGACACA | 0.0444
GAGGACAA | -0.0996
AATCTCAG | -0.217

Series 5
Target: Sal-like protein 4, full length isoform B (SALL4, Homo sapiens, UniProt Q9UJQ4-2, residues 1-616)
Technique: universal PBM
Molecule type: double-stranded DNA, one strand shown
Matrix: in vitro
Concentration: not given
Notes: 8-mer, flanks averaged, mean of replicates
Direction: higher = stronger binding
Construct (chain): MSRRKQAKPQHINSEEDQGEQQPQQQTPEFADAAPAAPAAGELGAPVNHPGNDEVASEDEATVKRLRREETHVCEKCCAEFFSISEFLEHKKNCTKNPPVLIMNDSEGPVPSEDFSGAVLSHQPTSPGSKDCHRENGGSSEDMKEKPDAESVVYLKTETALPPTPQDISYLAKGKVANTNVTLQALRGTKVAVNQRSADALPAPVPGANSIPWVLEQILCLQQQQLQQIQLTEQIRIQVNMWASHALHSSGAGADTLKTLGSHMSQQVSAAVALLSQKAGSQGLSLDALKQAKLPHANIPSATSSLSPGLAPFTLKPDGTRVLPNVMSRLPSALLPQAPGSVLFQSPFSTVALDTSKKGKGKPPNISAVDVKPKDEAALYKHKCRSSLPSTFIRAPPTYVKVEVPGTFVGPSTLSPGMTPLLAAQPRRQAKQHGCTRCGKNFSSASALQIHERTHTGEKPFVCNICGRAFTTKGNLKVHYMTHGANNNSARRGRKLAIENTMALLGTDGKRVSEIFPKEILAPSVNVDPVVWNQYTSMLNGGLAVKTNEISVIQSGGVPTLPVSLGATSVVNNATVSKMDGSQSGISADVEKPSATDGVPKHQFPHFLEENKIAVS
Oligonucleotide | E-score
AGGTCAAC | -0.0476
CCCGCAAG | -0.346
ACAATCGT | 0.217
AGGACATA | 0.181
GTAGCAGA | 0.0127
CGAACCCA | -0.178
CAAACTGA | -0.0671
CACCTTGA | -0.0895
AGGATCAT | 0.0818
CCCGCTAC | -0.168
GGCATACC | -0.144
CCCCACCG | -0.234
CGTATGAC | 0.213
GACATAAC | 0.198
CCGAACGC | -0.284
ACCAATAG | 0.119
GTGCATCA | 0.0892
ATAATGCC | 0.0922
GAGAGGCA | -0.228
TGACAGAA | 0.122
CCTCGGGC | -0.291
GCTGAAGA | -0.0887
GGCGGTCA | -0.263

Excerpt of the above (series 4):
Oligonucleotide | E-score
AATGCAAT | -0.198
CGATCACG | 0.104
GAACCGCC | 0.0418
ACATAAGC | -0.16
CGGAAACC | 0.0196
CTTCACTC | -0.0268
CAGCGACC | 0.147
AGTTCCGG | 0.023
ACCTGGTG | -1e-05
CTGAGCTC | 0.102
